Published values from different studies.
Numbered parts are unrelated; each lists some results of a single study. “And” joins repeats or separate records; there may be more than shown.

Study 1
Target: Mitogen-activated protein kinase kinase kinase 7 (MAP3K7, Homo sapiens, UniProt O43318)
Read-out: enzyme activity
Action: inhibitor
Concentration: 0.5 µM
Relative to: control
Construct (O43318 1-606): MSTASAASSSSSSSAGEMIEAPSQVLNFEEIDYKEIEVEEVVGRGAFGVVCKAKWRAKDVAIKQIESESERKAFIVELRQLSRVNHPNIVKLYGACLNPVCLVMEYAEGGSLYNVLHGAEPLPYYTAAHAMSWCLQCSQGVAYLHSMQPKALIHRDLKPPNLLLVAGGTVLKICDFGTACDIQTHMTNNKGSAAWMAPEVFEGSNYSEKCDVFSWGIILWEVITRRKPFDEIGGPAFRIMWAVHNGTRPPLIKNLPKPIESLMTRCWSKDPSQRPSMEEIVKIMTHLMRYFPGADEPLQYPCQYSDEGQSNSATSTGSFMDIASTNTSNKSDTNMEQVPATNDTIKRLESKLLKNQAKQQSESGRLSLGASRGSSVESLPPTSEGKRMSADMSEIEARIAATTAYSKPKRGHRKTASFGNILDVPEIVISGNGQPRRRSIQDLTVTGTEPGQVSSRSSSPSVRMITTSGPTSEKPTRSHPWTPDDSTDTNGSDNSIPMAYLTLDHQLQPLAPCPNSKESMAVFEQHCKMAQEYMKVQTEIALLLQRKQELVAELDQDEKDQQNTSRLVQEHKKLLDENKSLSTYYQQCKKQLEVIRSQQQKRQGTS
| SMILES | remaining activity [%] |
| --- | --- |
| CN([C@@H](Cc1ccc(OS(=O)(=O)c2cccc3cnccc23)cc1)C(=O)N1CCN(c2ccccc2)CC1)S(=O)(=O)c1cccc2cnccc12 | 93.4 |
| COc1cc2c(cc1OC)-c1[nH]nc(Nc3cccc(F)c3)c1C2 | 94 |
| CCOc1nc(NC(=O)Cc2cc(OC)ccc2OC)cc(N)c1C#N | 96.6 |
| C[C@@H]1CCN(C(=O)CC#N)C[C@@H]1N(C)c1ncnc2[nH]ccc12 | 87.5 |
| Cn1nc2c3c(cccc31)C(=O)c1ccccc1-2 | 83.9 |
| O=c1cc(-c2cccc3c2Sc2ccccc2S3)oc(N2CCOCC2)c1 | 84.5 |
| c1ccc(-c2cnc(Nc3ccc(OCCN4CCCC4)cc3)s2)cc1 | 102 |
| CCN(CC)CCNC(=O)c1c(C)[nH]c(/C=C2\C(=O)Nc3ccc(Cl)cc32)c1C | 3.51 |
| N#Cc1c(NC(=O)c2cccc3ccccc23)sc2c1CCCC2 | 99.7 |
| Cc1cc2ncc(-c3ccccc3)nc2cc1C | 89.8 |
| CN(C)C[C@H]1CCn2c(c(C3=C(c4cn(C)c5ccccc45)C(=O)NC3=O)c3ccccc32)C1 | 95.3 |
| Ic1cccc(CSc2nnc(-c3ccncc3)o2)c1 | 102 |
| O=C1c2ccccc2-c2n[nH]c3cccc1c23 | 59.3 |
| O=C1C(Cl)=C(N2C(=O)CCC2=O)C(=O)c2ccccc21 | 99.5 |
| CCN(CC)C(=O)c1ccc(Nc2nc(OCC3CCCCC3)c3[nH]cnc3n2)cc1 | 57.1 |
| Nc1cccc(-c2cc3c(Oc4cccc(O)c4)ncnc3[nH]2)c1 | 63 |
| c1ccc(-c2[nH]ncc2-c2ccnc3ccccc23)nc1 | 98.4 |
| Cc1nc2cc3nc(-c4cccs4)cnc3cc2n1C | 92.5 |
| CCN(CC)CCNC(=O)c1c(C)[nH]c(/C=C2\C(=O)Nc3ccc(F)cc32)c1C | 18.6 |
| N#C/C(=C\c1ccc(O)c(O)c1)C(=O)NCc1ccccc1 | 98.1 |
| COc1cc2ncnc(Nc3cccc(Cl)c3)c2cc1OC | 96.9 |
| O=C(Nc1cccc(Nc2nccc(Nc3cccc(C(F)(F)F)c3)n2)c1)C1CC1 | 87.4 |
| O=C(NC(NC(=S)Nc1ccc(F)c([N+](=O)[O-])c1)C(Cl)(Cl)Cl)C(c1ccccc1)c1ccccc1 (centres unmarked) | 89.7 |
| Cc1cn(-c2cc(NC(=O)c3ccc(C)c(Nc4nccc(-c5cccnc5)n4)c3)cc(C(F)(F)F)c2)cn1 | 89.2 |
| COc1cc2ncnc(Nc3ccc(O)c(Br)c3)c2cc1OC | 100 |

Study 2
Target: Beta-1 adrenergic receptor (ADRB1, Homo sapiens, UniProt P08588)
UniProt P08588, sequence (whole entry, looked up): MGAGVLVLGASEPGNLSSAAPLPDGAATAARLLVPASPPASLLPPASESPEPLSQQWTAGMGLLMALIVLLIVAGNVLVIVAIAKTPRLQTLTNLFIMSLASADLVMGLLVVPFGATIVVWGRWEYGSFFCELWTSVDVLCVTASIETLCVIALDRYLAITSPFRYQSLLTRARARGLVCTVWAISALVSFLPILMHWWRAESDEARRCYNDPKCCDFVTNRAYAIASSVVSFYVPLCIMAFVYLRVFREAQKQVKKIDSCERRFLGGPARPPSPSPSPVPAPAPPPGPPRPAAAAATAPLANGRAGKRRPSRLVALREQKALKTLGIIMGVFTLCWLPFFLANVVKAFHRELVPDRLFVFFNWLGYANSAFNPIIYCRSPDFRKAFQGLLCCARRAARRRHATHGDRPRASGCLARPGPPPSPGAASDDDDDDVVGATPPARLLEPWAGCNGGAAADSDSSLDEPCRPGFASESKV
Action: agonist
| SMILES | EC50 |
| --- | --- |
| Cc1ccc2c(Cn3nnc(-c4cccc(Cl)c4)n3)cc(=O)oc2c1 | ≥ 100 µM |
| OC(c1cccc(C(F)(F)F)c1)c1nc(Nc2ccc(N3CCOCC3)cc2)n[nH]1 (centres unmarked) | ≥ 100 µM |
| COc1ccc2[nH]cc(C3=CCN(c4ncnc5ccccc45)CC3)c2c1 | 35.5 µM |
| OC(COc1ccc(CN2CCC(F)(F)CC2)cc1)CN1CCCCC1 (centres unmarked) | ≥ 100 µM |
| Cc1ccc2c(CC(=O)N3CCOc4ccc(CN5CCOCC5)cc4C3)cc(=O)oc2c1 | ≥ 100 µM |
| CC(=O)N1CCN(c2ncccc2-c2cc(-c3ccccc3)nc3c(C)noc23)CC1 | ≥ 100 µM |
| O=C(COc1ccccc1)Nc1ccc([C@@H](O)[C@H]2COCC(=O)N2CCCc2ccccc2)cc1 | ≥ 100 µM |
| c1ccc(OCC2CN(Cc3ccc4[nH]ccc4c3)CC23CN(c2ccccc2)C3)cc1 (centres unmarked) | ≥ 100 µM |
| Cc1cc2c(F)c(Oc3ncnn4cc(OC[C@@H](C)OC(=O)[C@H](C)N)c(C)c34)ccc2[nH]1 | ≥ 100 µM |
| Cc1csc(-c2nnc(Nc3ccc(Oc4ncccc4-c4ccnc(N)n4)cc3)c3ccccc23)c1 | ≥ 100 µM |
| Cc1ccsc1-c1n[nH]c2ncc(-c3cnn(C)c3C)nc12 | ≥ 100 µM |
| CS(=O)(=O)N(CC(O)Cn1c2ccccc2c2ccccc21)c1ccccc1I (centres unmarked) | ≥ 100 µM |
| CN(Cc1cccc(OCC(O)CN2CCOCC2)c1)Cc1ccc2nonc2c1 (centres unmarked) | ≥ 100 µM |

Study 3
Target: D(1A) dopamine receptor (DRD1, Homo sapiens, UniProt P21728)
UniProt P21728, sequence (whole entry, looked up): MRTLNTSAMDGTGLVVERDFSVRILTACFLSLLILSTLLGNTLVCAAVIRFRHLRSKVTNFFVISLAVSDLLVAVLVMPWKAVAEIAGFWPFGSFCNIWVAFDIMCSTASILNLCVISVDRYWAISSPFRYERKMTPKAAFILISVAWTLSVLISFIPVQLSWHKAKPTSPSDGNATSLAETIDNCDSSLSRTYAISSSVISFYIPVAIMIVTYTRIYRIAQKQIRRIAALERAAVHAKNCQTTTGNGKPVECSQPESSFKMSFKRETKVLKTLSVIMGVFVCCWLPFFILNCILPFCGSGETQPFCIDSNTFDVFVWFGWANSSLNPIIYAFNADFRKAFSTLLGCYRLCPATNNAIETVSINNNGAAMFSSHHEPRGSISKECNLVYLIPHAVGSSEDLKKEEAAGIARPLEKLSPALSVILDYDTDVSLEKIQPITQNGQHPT
Read-out: ligand displacement
Concentration: 10 µM
| Structure (SMILES) | inhibition |
| --- | --- |
| Nc1cnc(N2CCc3cc(S(=O)(=O)Nc4c(F)cc(Cl)cc4F)cc(N4CCCC4=O)c32)nc1 | -8.35% |
| Cn1nc(C(=O)NCc2ccc(C(=O)O)cc2)cc1-c1ccc2[nH]ccc2c1 | -19.6% |
| CCC(=NO)C(C)=Cc1ccc(F)c(C)c1 | -0.91% |
| CCC(F)(F)c1cc(N2CCC(S(C)(=O)=O)CC2)nc2sc(C(N)=O)c(N)c12 | 25.7% |
| O=C(Nc1ccc(Oc2ccc(F)cc2)cc1)N1CCc2ncccc2[C@H]1c1ccc(F)cc1 | 39.1% |
| Cc1cc(Nc2nccc(C)n2)cc(-c2cnc([C@@]3(O)CC[C@H](C(=O)O)C(C)(C)C3)s2)c1 | -7.4% |
| C[C@H](c1ccc(F)cc1)N(Cc1cccc(C(=O)O)c1)C(=O)c1cnc2ccccc2c1 | -0.79% |
| O=C(NCCCC1CCCCC1)c1ccc(CNC(=O)c2cnn(-c3ccccc3)c2C(F)(F)F)cc1 | 5.56% |
| NC(=O)c1ccc2nc(-c3ccc(C4(N)CCC4)cc3)c(-c3ccccc3)n2n1 | -3.8% |
| CN(C)c1ncnc(-c2ccc3nc(Nc4cc(CN5CCN(C(=O)CC(F)(F)F)CC5)ccn4)[nH]c3c2)c1Cl | 23% |
| CN(C)CC#Cc1ccc(OCCCc2sc(N3CCc4cccc(C(=O)Nc5nc6ccccc6s5)c4C3)nc2C(=O)O)c(F)c1 | 24.6% |
| Cc1c(NC(=O)c2cc(C(N)=O)nc3cc(F)ccc23)c(C(F)(F)F)nn1Cc1ccc(C#N)cc1 | -17.9% |
| c1ccc(N2CCN(Cc3nc4ccccc4[nH]3)CC2)nc1 | 3% |
| COCCOc1nc(-c2ccc(Cl)nc2)nc2c1CN(C(=O)c1ncn3ccccc13)CC2 | -8.34% |
| Nc1nc(NCc2ccccc2)nc(-c2ccccc2CO)n1 | 33.7% |
| CC1=C(C#N)C(c2ccc3[nH]nc(C)c3c2)C(C#N)=C(C)N1 | 6.92% |
| CCOc1ccc(S(=O)(=O)Nc2ccc(Cl)cc2C#Cc2cnc(C(=O)O)cc2OC)c2ncccc12 | 8.58% |
| C[C@@H]1CN(c2cc(-c3n[nH]c4ccc(OC5(C)CC5)cc34)ncn2)C[C@H](C)O1 | -17.4% |
| NS(=O)(=O)c1cc(NC(=O)Cc2ccccc2)ccc1Oc1cccc(Cl)c1 | 21.6% |
| CC(=O)N1CCC(c2ccc(C(=O)NC3=NCCN3)cc2C(F)(F)F)CC1 | 4.8% |
| C[C@H](c1ccnc(Nc2nc3ccc(-c4cc(N(C)C)ncn4)cc3[nH]2)c1)N1CCN(C(=O)CC(F)(F)F)CC1 | 1.63% |
| Cn1cc(Cl)c2c(Oc3c(F)cc(Nc4cc(Cl)nc(N)n4)cc3F)ccnc21 | 13.2% |
| O=c1nc(-c2ccccn2)sc2ccccc12 | 3.24% |
| CC[C@H](CC(=O)O)n1c(=O)c2ncccc2n(Cc2cn(C)c3cc(C)cc(C)c23)c1=O | 20.3% |
| N#CC1(c2ccccn2)CCN(Cc2cc(C(=O)N3CCCC3)c(=O)n3ccccc23)CC1 | -15.1% |

Study 4
Cell line: mouse MPNST tumor cells
Method: high-content nuclear imaging
Measured: cell number
Concentration: 10 µM
Time: 12 h
Setting: mean of 2 replicates
Relative to: plate mean
Reading: higher = more cells
| SMILES | nuclei count |
| --- | --- |
| Nc1ccc(S(=O)(=O)Nc2cnc3ccccc3n2)cc1 | -0.729 z-score |
| COc1cc(C(=O)NS(=O)(=O)c2ccccc2C)ccc1Cc1cn(C)c2ccc(NC(=O)OC3CCCC3)cc12 | 0.553 z-score and -0.709 z-score |
| CCC1(c2c[nH]cn2)Cc2ccccc2C1 | 1.11 z-score |
| CC(=C(CCO)SSCC1CCCO1)N(C=O)Cc1cnc(C)nc1N (stereo in doubt) | -0.324 z-score |
| CCCCc1nc(Cl)c(CO)n1Cc1ccc(-c2ccccc2-c2nnn[nH]2)cc1 | 0.875 z-score and 0.135 z-score |
| COc1ncc2cc(C(=O)Nc3cc(C(=O)NCc4cccc(Cl)c4)ccc3Cl)c(=O)[nH]c2n1 | 0.707 z-score |
| COc1cc2nccc(Oc3ccc(NC(=O)Nc4ccc(F)cc4F)c(F)c3)c2cc1OC | -4.37 z-score |
| COC(=O)CC1CC(c2ccc(O)cc2)=NO1 (centres unmarked) | 2.84 z-score |
| O=C1c2ccccc2C(=O)C1c1ccccc1 | -0.172 z-score |
| CS(=O)(=O)Nc1ccc([N+](=O)[O-])cc1Oc1ccccc1 | -0.647 z-score |
| C#C[C@]1(O)CC[C@H]2[C@@H]3CCC4=CC(=O)CC[C@@H]4[C@H]3CC[C@@]21CC | 0.349 z-score |

A few entries again (study 3):
| Structure (SMILES) | inhibition |
| --- | --- |
| CCOc1ccc(S(=O)(=O)Nc2ccc(Cl)cc2C#Cc2cnc(C(=O)O)cc2OC)c2ncccc12 | 8.58% |
| C[C@@H]1CN(c2cc(-c3n[nH]c4ccc(OC5(C)CC5)cc34)ncn2)C[C@H](C)O1 | -17.4% |
| NS(=O)(=O)c1cc(NC(=O)Cc2ccccc2)ccc1Oc1cccc(Cl)c1 | 21.6% |
| CC(=O)N1CCC(c2ccc(C(=O)NC3=NCCN3)cc2C(F)(F)F)CC1 | 4.8% |
| C[C@H](c1ccnc(Nc2nc3ccc(-c4cc(N(C)C)ncn4)cc3[nH]2)c1)N1CCN(C(=O)CC(F)(F)F)CC1 | 1.63% |
| Cn1cc(Cl)c2c(Oc3c(F)cc(Nc4cc(Cl)nc(N)n4)cc3F)ccnc21 | 13.2% |
| O=c1nc(-c2ccccn2)sc2ccccc12 | 3.24% |
| CC[C@H](CC(=O)O)n1c(=O)c2ncccc2n(Cc2cn(C)c3cc(C)cc(C)c23)c1=O | 20.3% |
| N#CC1(c2ccccn2)CCN(Cc2cc(C(=O)N3CCCC3)c(=O)n3ccccc23)CC1 | -15.1% |
